Literature values as cited in several papers.
Compare with care: the assays were run in different laboratories. Numbers after ± are the reported error.
Chain of UniProt P21917 (whole entry, looked up): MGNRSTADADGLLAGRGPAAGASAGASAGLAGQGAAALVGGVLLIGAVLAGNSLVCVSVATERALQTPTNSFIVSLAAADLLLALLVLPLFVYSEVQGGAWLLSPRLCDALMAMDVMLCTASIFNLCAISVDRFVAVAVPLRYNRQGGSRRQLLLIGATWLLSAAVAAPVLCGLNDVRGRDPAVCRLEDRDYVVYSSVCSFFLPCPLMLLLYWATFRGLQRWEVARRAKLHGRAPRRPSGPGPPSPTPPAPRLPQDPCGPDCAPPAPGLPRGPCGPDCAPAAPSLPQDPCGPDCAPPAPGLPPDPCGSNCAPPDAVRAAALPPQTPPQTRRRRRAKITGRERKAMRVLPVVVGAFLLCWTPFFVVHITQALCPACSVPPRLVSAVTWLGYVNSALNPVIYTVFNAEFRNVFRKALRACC
Chain of UniProt P18089 (whole entry, looked up): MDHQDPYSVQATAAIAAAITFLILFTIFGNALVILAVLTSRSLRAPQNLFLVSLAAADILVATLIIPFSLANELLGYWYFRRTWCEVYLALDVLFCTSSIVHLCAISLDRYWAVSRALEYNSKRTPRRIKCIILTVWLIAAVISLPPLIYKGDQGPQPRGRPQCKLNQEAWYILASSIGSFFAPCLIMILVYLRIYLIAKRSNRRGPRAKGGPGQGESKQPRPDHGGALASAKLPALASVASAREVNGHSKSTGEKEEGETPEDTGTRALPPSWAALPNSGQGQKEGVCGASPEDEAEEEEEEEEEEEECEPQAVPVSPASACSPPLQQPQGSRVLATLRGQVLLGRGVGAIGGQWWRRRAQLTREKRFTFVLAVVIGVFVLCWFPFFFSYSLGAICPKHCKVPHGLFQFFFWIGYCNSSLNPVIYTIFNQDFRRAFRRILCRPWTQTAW

| Substance | tested on | test | system | setting | quantity | result |
| --- | --- | --- | --- | --- | --- | --- |
| C=CCN(CC=C)CCc1c[nH]c2ccc(OC)cc12 | D(4) dopamine receptor (DRD4, Homo sapiens, UniProt P21917) | – | – | – | Ki | > 10 µM |
| CC[C@H](C)[C@H](NC(=O)[C@@H](N)Cc1ccccc1)C(=O)NCC(=O)N[C@H](C(=O)N[C@@H](CC(C)C)C(=O)N[C@H](C(=O)N1CCC[C@H]1C(=O)N[C@@H](CC(C)C)C(=O)N[C@@H](C)C(=O)N[C@@H](CC(C)C)C(=O)NCC(=O)N[C@@H](C)C(=O)N[C@@H](CC(C)C)C(=O)N[C@H](C(=O)N[C@@H](CCCCN)C(=O)N[C@@H](CC(C)C)C(=O)N[C@@H](Cc1ccccc1)C(=O)N[C@@H](CCCCN)C(N)=O)[C@@H](C)O)[C@@H](C)CC)[C@@H](C)O | HeLa | – | – | literature value | IC50 | ~10 µM |
| CO[C@H]1C[C@H](O[C@H]2CC[C@@]3(C)[C@@H](C2)C[C@@H]2O[C@]24[C@@H]3[C@H](O)C(=O)[C@]2(C)[C@@H](C3=CC(=O)OC3)CC[C@]42O)O[C@@H](C)[C@@H]1O | MDA-MB-435 | cell viability | – | 72 h | IC50 | 0.2 ± 0.12 µM |
| COc1ccc(C[C@H]2COC(=O)[C@@H]2Cc2ccc(O)c(O)c2)cc1OC | neutrophils | superoxide production | – | together with: fMLF | IC50 | 0.3 µM |
| C/C1=C\[C@H](C)C[C@H](C)OC(=O)C[C@H](c2ccc(O)cc2)NC(=O)[C@@H](Cc2c(Br)[nH]c3ccccc23)N(C)C(=O)[C@H](CO)NC(=O)[C@@H](C)C1 | MCF7 | cytotoxicity | – | – | IC50 | 0.02 µM |
| Aristolactam IIIa | human neutrophils | elastase release | – | together with: fMLF | IC50 | 0.72 µM |
| CN(Cc1cnc2nc(N)nc(N)c2n1)c1ccc(C(=O)N[C@@H](CCC(=O)O)C(=O)O)cc1 | KB | cell growth | – | 96 h, folic acid-free medium | IC50 | 0.006 µM |
| COC(=O)C(C)CCC[C@]1(C)CC[C@]2(O1)C(=O)C(C)=C(C)[C@@]2(O)C(C)=O (stereo partly drawn) | human neutrophils | elastase release | – | together with: fMLF | IC50 | 3.7 µM |
| C/C1=C\CC[C@@]2(C)O[C@@H]2[C@H]2OC(=O)[C@@H](CN(C)C)[C@@H]2CC1 | U-87 MG | cell growth, inhibitor | – | – | IC50 | 8.8 ± 1.9 µM |
| C=C1[C@H]2[C@@H]([C@@H](C(C)C)C[C@@H]1O)[C@H]1O[C@@H]2C[C@](C)(O)[C@@H](OC(=O)Cc2ccccc2)CC[C@@]1(C)OC(=O)CCC | human neutrophils | elastase release | – | together with: fMLF | IC50 | 2.9 µM |
| ClC1=C(Cl)[C@]2(Cl)[C@@H]3[C@@H]4C[C@@H]([C@H]5O[C@@H]45)[C@@H]3[C@@]1(Cl)C2(Cl)Cl | PC-12 | cell viability, MTT | – | 1 h | IC50 | 143 µM |
| CC(C)(C)c1ccc(S(=O)(=O)/C=C/C#N)cc1 | endothelial cell line | I-κB phosphorylation, inhibitor | – | together with: TNF-α | IC50 | 10 µM |
| CC(/C=C/CCCO)=C\[C@@H]1Cc2nc(cs2)[C@@H](C)C[C@@H](NC(=O)OC(C)(C)C)CC(=O)O[C@@H](C)C/C(C)=C/C=C\C(=O)O1 | Jurkat T cells | IL-2 reporter gene | – | – | IC50 | > 1 µM |
| N.N.[Cl][Pt][Cl] | HeLa | – | – | – | IC50 | 27.2 ± 1.71 µM |
| C[C@@]12OC(=O)[C@]1([C@@H](O)[C@@H]1C=CCCC1)NC(=O)[C@@H]2CCCl | MM1.S | cell growth | – | – | IC50 | 0.007 µM |
| C=CCc1ccc(O)c(-c2cc(O)ccc2O)c1 | human neutrophils | elastase release | – | together with: fMLF | IC50 | 6.9 µM |
| N.N.[Cl][Pt][Cl] | esophageal cancer cell lines, low GLUT1 expression | – | – | 17 cell lines, mean value | IC50 | 18.3 ± 11.6 µM |
| COc1c(OC)c2c(c(CCN(C)C)c1SC)SSSSS2 | MDA-MB-231 | cell growth | – | previously reported | IC50 | 3.6 µM |
| C[C@H]1O[C@@H](O[C@H]2[C@@H](O)C[C@H](O[C@H]3[C@@H](O)C[C@H](O[C@H]4CC[C@@]5(C)[C@H](CC[C@@H]6[C@@H]5C[C@@H](O)[C@]5(C)[C@@H](C7=CC(=O)OC7)CC[C@]65O)C4)O[C@@H]3C)O[C@@H]2C)C[C@H](O)[C@@H]1O | OVCAR-3 | cell viability | – | 72 h | IC50 | 0.1 ± 0.01 µM |
| Nc1nc2c(c(=O)[nH]1)C[C@@H](CCc1ccc(C(=O)N[C@@H](CCC(=O)O)C(=O)O)cc1)CN2 | CCRF-CEM/MTX RFC-deficient | cell growth | – | – | IC50 | > 100 µM |
| C=CCN(CC=C)CCc1c[nH]c2ccccc12 | Alpha-2B adrenergic receptor (ADRA2B, Homo sapiens, UniProt P18089) | binding | cloned human receptor | together with: [3H]rauwolscine | Ki | 0.305 µM |

Repeated from above:
| Substance | tested on | test | system | setting | quantity | result |
| --- | --- | --- | --- | --- | --- | --- |
| CO[C@H]1C[C@H](O[C@H]2CC[C@@]3(C)[C@@H](C2)C[C@@H]2O[C@]24[C@@H]3[C@H](O)C(=O)[C@]2(C)[C@@H](C3=CC(=O)OC3)CC[C@]42O)O[C@@H](C)[C@@H]1O | MDA-MB-435 | cell viability | – | 72 h | IC50 | 0.2 ± 0.12 µM |
| COc1ccc(C[C@H]2COC(=O)[C@@H]2Cc2ccc(O)c(O)c2)cc1OC | neutrophils | superoxide production | – | together with: fMLF | IC50 | 0.3 µM |
| C/C1=C\[C@H](C)C[C@H](C)OC(=O)C[C@H](c2ccc(O)cc2)NC(=O)[C@@H](Cc2c(Br)[nH]c3ccccc23)N(C)C(=O)[C@H](CO)NC(=O)[C@@H](C)C1 | MCF7 | cytotoxicity | – | – | IC50 | 0.02 µM |
